Measured values gathered from unrelated publications.
Each numbered part is a random draw from the data of one study; scales do not carry over between parts. Substitutions count along the parent as printed.

Block 1
Target: CCNA2, cyclin fold, Cln2 fusion (human)
Method: yeast growth competition, sequencing
Medium: yeast
Setting: strong parent motif
Relative to: not given
Direction: higher = stronger binding
Parent: USP37 docking peptide (human); PSAKRSLGFLPQP; partner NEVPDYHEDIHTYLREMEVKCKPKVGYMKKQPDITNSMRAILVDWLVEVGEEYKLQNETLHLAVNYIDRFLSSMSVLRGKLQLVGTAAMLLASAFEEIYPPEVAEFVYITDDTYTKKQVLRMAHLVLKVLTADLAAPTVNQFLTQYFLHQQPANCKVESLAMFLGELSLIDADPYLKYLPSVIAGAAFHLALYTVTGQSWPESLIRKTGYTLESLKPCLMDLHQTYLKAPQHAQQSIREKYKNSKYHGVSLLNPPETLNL
Substitution	normalised enrichment score
L10A	2.94
S2A	1.8
R5A	0.421
P11A	1.87
P13A	1.95
P1A	1.37

Block 2
Target: ABI1, truncated, D143A, DHFR fusion (Arabidopsis thaliana)
Method: DHFR PCA, deep sequencing
Medium: yeast
Setting: methotrexate growth selection, single substitutions
Added: (+)-ABA 17 µM
Relative to: wild-type fitted maximum
Direction: higher = stronger binding
Parent: PYL1, truncated, DHFR fusion (Arabidopsis thaliana); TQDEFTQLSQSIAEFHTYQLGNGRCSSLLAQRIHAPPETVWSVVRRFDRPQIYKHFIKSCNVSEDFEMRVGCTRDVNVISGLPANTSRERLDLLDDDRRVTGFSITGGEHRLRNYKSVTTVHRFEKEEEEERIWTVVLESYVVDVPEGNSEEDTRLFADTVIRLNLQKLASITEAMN; partner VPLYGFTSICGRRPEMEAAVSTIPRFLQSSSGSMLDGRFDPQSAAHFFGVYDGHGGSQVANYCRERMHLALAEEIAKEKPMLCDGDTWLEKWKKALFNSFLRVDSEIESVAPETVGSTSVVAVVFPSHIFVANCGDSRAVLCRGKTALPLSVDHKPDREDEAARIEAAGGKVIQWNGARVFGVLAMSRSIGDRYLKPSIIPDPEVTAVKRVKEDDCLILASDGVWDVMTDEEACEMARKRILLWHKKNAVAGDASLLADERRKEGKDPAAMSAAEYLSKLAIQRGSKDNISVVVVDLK
Substitution	relative binding score
I33T	8.49%
T101M	95.4%
T39W	60.9%
S104G	0.199%
L8F	87.8%
H34I	72.4%
D153N	6.53%
R123N	84.9%
D48E	65.6%
C72I	72.7%
E64M	70.1%
Q167T	82.1%
T173R	3.1%
H16P	16%
V121E	-2.66%
A175V	77.2%
L166Y	-11.8%
I162A	-0.213%

Block 3
Target: Hepatocyte nuclear factor 3-alpha (Foxa1, Mus musculus, UniProt P35582, residues 1-468, full length assumed)
Method: EMSA with sequencing
Form: double-stranded DNA, one strand shown
Medium: in vitro
Concentration: 10 and 20 nM
Setting: whole designed probe, mean of two concentrations, ends assumed
Relative to: negative control set to 0
Direction: higher = stronger binding
Constant ends, left off below: GTGAGCGGTGCCCATTGATGGGGAAC … TTTCACTGGGATCGTGGGGAC
Construct (chain): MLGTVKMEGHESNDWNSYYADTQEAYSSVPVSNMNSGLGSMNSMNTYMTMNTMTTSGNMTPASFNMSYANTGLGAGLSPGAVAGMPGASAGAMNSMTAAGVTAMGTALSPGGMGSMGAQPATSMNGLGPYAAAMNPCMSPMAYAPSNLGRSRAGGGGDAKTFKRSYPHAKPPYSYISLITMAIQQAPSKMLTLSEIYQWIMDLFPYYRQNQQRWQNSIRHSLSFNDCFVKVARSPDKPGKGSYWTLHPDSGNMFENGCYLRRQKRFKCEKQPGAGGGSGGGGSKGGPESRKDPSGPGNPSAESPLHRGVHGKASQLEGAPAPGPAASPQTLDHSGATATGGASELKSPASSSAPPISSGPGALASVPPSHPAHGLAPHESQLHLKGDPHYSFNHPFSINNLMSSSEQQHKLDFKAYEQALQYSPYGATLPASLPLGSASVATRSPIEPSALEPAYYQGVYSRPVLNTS
Sequence	normalised bound fraction [ratio]
CAAGTTTGTGGTCCAGGAGCAACAGGTTATGCCATACAGCCTAGGTGTGTAGTAGGCTACACACCGTCTATGTTTGTGTTGTACACTCTACAATGTTTGCACAATGATGAAATCTTCCATGACTCATCTCAGAACATACCCCTGTTGTTAAGCGATACATGACTGTACTTTTTTTAAAAAGTCCAAGGATATA	0.453
AAAACCTTCCTATCCCATGGTTATAAAGGAATCACTCATATTTTCTAAATGTGCTTTTTATATTTGTTTTAAACATTTAAAATCTTTGATCCAAGAGGACTTTTTCTTGGTATGTAAAGTAAGGTACTAATTTATCAAGTGGCTGTCAGTCGTCCTAACACCTTTTATCAAAAAGTCCCCCTTTATGGTTAGG	0.242
ATCTTCCCCCTCTTCCTTGCCCCACCAGCTCACCTTCCCGGGTTATTTGCAGATAGGAAAATAAATAAAGCCGGCATTCGTTAACCCTCGATGAATCATGACTGCTGTTTGCTCTGGATCTAACATGGTCCTTTGGCGACGCCAGGCTCCGGGAGAGCAAAGCACCGTGTCAGGGCCATGATCCGGGGTGGCC	0.362
TGCAAAGGGCAAGATAGTTTCTCTGCTGTTAGCTTCAAAGGTTGTAGGTAATAAATTAAAAACTATAAGCAAATTTAAAGAATTAAAAGAAAAGCAAATAACTCTTGAGACTGATTTAGGTAGGTAATTTATCACTTCTTTATATCTCTCCCAGGAGATTAACTAGAGAAACTGTGGATATTGTATCAATGAG	0.332
ACAATGTGTTTTCCAAAGAGATCTAAATTTAACAAAGTTGTAGGTGAGGAAGCCCTGCTTTTGCATTATAATTTAATTAATTAGCATTTATTTTTGTTTACTTTGAATGTCTTTGCATGCTCATATGAAAATACATACATTTACAATAATTCAGATGTAGACCTGTCAGATATCAACTCCTCAGGTAGAATGA	0.452
GGAATAAGGATTGTGACAGTTTTACTGTGCTTATCATTTGTCATTCCAGTGGCATTTCATTGATCCAAAGCCTATCAATAATTCATCTGACTTGTTTACTTTGATAGCCCCAGACACACCTAAAGAGAGATCCTTTCATTTTTTTGAGATTCATGGAATCCAACAAATGATCATTCAGCAGAGCTATGGCAAC	0.419
AAGTCCAAGGTTCTTAGAGGCTTACTGAATGGCTTAGTCATCAACCTGTAGGCAATAATTAATGTGACTCCTACAATATCTCACTCCAACAAAGTCAATAAACTTTTGTGGGTGTTTGTATTAGCTAAGTAAAGGGCTTTTTGTTTTCTAACTTATCTTTGATCTTCTTGGTTGGGAGACCAAACAACATATA	0.4
TATAGACTGCGGCAGCCCAGTTCAAAAGAAACAGGCTTTAAAGAAAAGCAAACTGGTGTCCAATGACATCAAATAGAACCAGGAGCTCCAAAGTACTTTAGCTTCTTGTCTCTGTTCTTATTTATTTATTGCTGTTGCTCACGCCAGTCAGGGCAGCAGGGGGCTGGCAGGCTTACTCATGGGCCCAGATAAG	0.285

Block 4
Target: Sal-like protein 4, full length isoform B (SALL4, Homo sapiens, UniProt Q9UJQ4-2, residues 1-616)
Method: universal PBM
Form: double-stranded DNA, one strand shown
Medium: in vitro
Concentration: not given
Setting: 8-mer, flanks averaged, mean of replicates
Direction: higher = stronger binding
Construct (chain): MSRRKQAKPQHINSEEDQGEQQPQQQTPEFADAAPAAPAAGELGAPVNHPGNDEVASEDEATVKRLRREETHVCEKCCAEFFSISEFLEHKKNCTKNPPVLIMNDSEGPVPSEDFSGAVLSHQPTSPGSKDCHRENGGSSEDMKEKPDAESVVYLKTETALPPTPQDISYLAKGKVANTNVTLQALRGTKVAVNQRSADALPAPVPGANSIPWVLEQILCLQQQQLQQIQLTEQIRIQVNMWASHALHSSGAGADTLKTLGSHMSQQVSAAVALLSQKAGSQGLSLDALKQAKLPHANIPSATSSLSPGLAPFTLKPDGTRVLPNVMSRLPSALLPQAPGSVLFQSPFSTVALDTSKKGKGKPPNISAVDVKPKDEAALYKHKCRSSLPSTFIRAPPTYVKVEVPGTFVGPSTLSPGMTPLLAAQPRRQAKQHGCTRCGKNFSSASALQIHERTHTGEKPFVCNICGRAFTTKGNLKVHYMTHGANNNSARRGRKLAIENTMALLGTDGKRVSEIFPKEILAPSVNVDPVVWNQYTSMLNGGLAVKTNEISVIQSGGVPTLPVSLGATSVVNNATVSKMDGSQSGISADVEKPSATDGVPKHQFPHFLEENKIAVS
Sequence	E-score
AGGAGTAA	0.114
CCGTACCA	-0.136
AGAATGCC	0.0533
CCAGAAAC	-0.0943
AGTTTCGA	-0.0218
CGCAGGTA	-0.0422
CAACTCTG	-0.179
GCCGGGAA	-0.259
AAATCAGG	0.078
GTATCGAA	0.0974
AAGTCCTA	0.00364
CGAAATCA	0.136
GAAATGGA	0.0778
AACCGCCC	-0.313
GAGTCGAC	-0.159
CACTATAC	0.149
AGGCCAAG	-0.15
CCGCCACC	-0.231
GTATAGTA	0.194
CGTTCAGA	-0.161
AACAGGCT	-0.0134
AAAATGTC	0.251
AATGGTCT	0.0761
CTAGCTTC	-0.0104
ATTACGGG	0.0655

Excerpt of the above (block 4):
Sequence	E-score
AGGCCAAG	-0.15
CACTATAC	0.149
CTAGCTTC	-0.0104
AGGAGTAA	0.114
AGAATGCC	0.0533
CGTTCAGA	-0.161
AAGTCCTA	0.00364
GCCGGGAA	-0.259
CGCAGGTA	-0.0422
